Measured values gathered from unrelated publications.
Compare with care: the assays were run in different laboratories. Values joined by “and” are separate records of one study, mostly repeats; a detail may differ. ± marks the error that the study gave.
Genome polyprotein NS2B-NS3 protease: Genome polyprotein, NS2B-NS3 protease (dengue virus type 2, UniProt P29990)
CNR2: Cannabinoid receptor 2 (CNR2, Homo sapiens, UniProt P34972)
Chain of UniProt P34972 (whole entry, looked up): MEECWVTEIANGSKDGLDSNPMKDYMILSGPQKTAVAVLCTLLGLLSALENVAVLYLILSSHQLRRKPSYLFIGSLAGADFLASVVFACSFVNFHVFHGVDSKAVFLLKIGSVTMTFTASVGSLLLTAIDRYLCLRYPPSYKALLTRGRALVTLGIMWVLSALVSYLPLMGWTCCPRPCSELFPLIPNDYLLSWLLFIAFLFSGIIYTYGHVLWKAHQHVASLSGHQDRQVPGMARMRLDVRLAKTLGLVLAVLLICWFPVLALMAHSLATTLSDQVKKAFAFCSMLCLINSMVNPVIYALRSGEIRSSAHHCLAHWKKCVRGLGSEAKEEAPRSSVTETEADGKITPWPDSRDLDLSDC
Chain of UniProt Q9SZU7 (whole entry, unmodified, looked up): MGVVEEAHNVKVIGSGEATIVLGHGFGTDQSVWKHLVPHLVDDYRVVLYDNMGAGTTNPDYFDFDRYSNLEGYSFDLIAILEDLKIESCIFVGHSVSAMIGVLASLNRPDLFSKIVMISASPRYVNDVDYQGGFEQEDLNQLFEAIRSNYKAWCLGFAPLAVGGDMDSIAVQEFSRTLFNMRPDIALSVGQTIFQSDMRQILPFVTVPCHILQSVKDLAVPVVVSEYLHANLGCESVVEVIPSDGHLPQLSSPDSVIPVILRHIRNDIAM
Chain of UniProt Q9P0L2 (whole entry, looked up): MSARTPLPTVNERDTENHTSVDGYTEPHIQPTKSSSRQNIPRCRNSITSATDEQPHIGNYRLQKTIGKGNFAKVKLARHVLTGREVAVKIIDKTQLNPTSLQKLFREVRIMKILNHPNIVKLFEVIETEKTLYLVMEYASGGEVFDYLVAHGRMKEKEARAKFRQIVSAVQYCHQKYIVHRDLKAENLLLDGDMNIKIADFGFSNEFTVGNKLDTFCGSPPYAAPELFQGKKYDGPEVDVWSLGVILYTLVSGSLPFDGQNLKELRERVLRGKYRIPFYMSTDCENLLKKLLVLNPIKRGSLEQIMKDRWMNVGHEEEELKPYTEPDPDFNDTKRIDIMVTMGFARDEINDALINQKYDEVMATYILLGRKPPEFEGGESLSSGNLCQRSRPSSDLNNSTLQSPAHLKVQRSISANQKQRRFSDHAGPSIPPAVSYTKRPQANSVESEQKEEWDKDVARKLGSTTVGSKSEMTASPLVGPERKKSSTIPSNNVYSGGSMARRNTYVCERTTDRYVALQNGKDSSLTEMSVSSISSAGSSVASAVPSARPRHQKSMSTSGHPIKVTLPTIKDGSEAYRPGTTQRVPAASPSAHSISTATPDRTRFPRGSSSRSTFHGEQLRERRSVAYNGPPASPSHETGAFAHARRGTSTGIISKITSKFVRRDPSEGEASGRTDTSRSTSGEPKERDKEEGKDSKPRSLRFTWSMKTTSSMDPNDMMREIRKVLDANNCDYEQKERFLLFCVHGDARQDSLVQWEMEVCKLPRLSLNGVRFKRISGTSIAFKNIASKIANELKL

`NC(=O)c1cccc(NC(=O)c2cc(-c3ccc(Cl)cc3)n(-c3ccccc3)n2)c1` gave an EC50 of 21 µM (Genome polyprotein NS2B-NS3 protease; reporter gene; HeLa).
`CCOC(=O)C(CC)(CCCSCCOCCOCCOCCOCCNc1ccc([N+](=O)[O-])c2nonc12)NC(=O)c1ccc(C2CC2)c(Cc2ccc(F)cc2)n1` (stereo not shown) has a Ki of 0.038 µM (CNR2; ligand displacement, radioligand; cell membranes).
With `NC(=O)c1cccc(NC(=O)c2cc(-c3ccc4c(c3)OCCO4)n(-c3ccccc3)n2)c1` the EC50 was 12 µM (Genome polyprotein NS2B-NS3 protease; reporter gene; HeLa).
`O=C(N1CCc2ccccc21)n1ccnc1` gave a Kd of 111 µM (KAI2 (Arabidopsis thaliana, UniProt Q9SZU7); binding, ITC).
For `CCOC(=O)C(CC)(CCCSCCOCCOCCN)NC(=O)c1ccc(C2CC2)c(Cc2ccc(F)cc2)n1` (racemic), the EC50 was 0.028 µM (CNR2; cAMP, agonist).
The IC50 of `Cc1nn(-c2cccc(N)c2)c(=O)c2cnc(Nc3ccc(N4CCNCC4)cc3)nc12` is reported as over 10 µM (MARK1 (Homo sapiens, UniProt Q9P0L2); enzyme activity, inhibitor).
The Kd of `C=CC(=O)N1CC2(CCN(c3nc(OC4CCN(CCCOC)CC4)nc4c(OCC(F)(F)F)c(-c5c(C)ccc6[nH]ncc56)c(C5CC5)cc34)CC2)C1` is reported as 0.863 ± 0.15 µM (GTPase KRas, GDP-bound (KRAS, Homo sapiens, UniProt P01116, G13D); binding, surface plasmon resonance).
`Cc1onc(-c2ccc(F)cc2)c1C(=O)Nc1cccc(C(N)=O)c1` gave an EC50 of over 50 µM (Genome polyprotein NS2B-NS3 protease; reporter gene; HeLa).
`CCOC(=O)C(CC)(CCCSCCOCCOCCOCCNc1ccc([N+](=O)[O-])c2nonc12)NC(=O)c1ccc(C2CC2)c(Cc2ccc(F)cc2)n1` (stereo not shown) gave a Ki of 0.027 µM (CNR2; ligand displacement, radioligand; cell membranes).
`O=C1c2ccc3c4ccc5c6c(ccc(c7ccc(c2c37)C(=O)N1CCN1CCCCC1)c64)C(=O)N(CCN1CCCCC1)C5=O` has a DC50 of 0.72 ± 0.18 µM (hTERT promoter G-quadruplex DNA; binding, thiazole orange displacement; pH 7).
`O=C(Nc1cccc(CNc2ncccn2)c1)c1cc(-c2ccccc2)n(-c2ccccc2)n1` has an EC50 of 2.2 µM (Genome polyprotein NS2B-NS3 protease; reporter gene; HeLa).
With `Cc1cccc2c1N(C(=O)n1ccnn1)CC2` the Kd was 520 µM and 320 µM and 495 µM (KAI2 (Arabidopsis thaliana, UniProt Q9SZU7, F157Y); ITC; F157Y mutant).
With `CCOC(=O)C(CC)(CCCSCCOCCOCCNC(=O)OC(C)(C)C)NC(=O)c1ccc(C2CC2)c(Cc2ccc(F)cc2)n1` (racemic) the Ki was 0.164 µM (CNR2; ligand displacement, radioligand; cell membranes).
`O=C(O)C(Cc1c[nH]cn1)N1C(=O)c2ccc3c4ccc5c6c(ccc(c7ccc(c2c37)C1=O)c64)C(=O)N(CCN1CCCCC1)C5=O` (stereo not shown) gave a DC50 of 0.36 ± 0.14 µM (hTERT promoter G-quadruplex DNA; binding, thiazole orange displacement; pH 7).
For `Cc1ccc(-n2nc(C(N)=O)cc2-c2ccc(CC(C)C)cc2)cc1`, the EC50 was 9.9 µM (Genome polyprotein NS2B-NS3 protease; reporter gene; HeLa).
For `CC(C)(C)n1cc(CN(Cc2cn(CC(=O)O)nn2)Cc2cn(C(C)(C)C)nn2)nn1`, the Kd was 0.000104 µM (Cu(I); binding, bicinchoninic acid competition; 1000 µM, with: bicinchoninic acid 40 µM).
The DC50 of `O=C(O)C(Cc1c[nH]cn1)N1C(=O)c2ccc3c4ccc5c6c(ccc(c7ccc(c2c37)C1=O)c64)C(=O)N(C(Cc1c[nH]cn1)C(=O)O)C5=O` (stereo not shown) is reported as over 2.5 µM (hTERT promoter G-quadruplex DNA; binding, thiazole orange displacement; pH 6).
`C=CC(=O)N1C[C@H](C)N(c2nc(OC[C@@]34CCCN3C[C@H](F)C4)nc3c(F)c(-c4ccc(F)c5sc(N)c(C#N)c45)c(C(F)(F)F)cc23)C[C@H]1C` has a Kd of 12 µM (GTPase KRas, GppNHp-bound (KRAS, Homo sapiens, UniProt P01116); SPR).
With `O=C(Nc1cccc(CO)c1)c1cc(-c2ccccc2)n(-c2ccccc2)n1` the EC50 was 9.8 µM (Genome polyprotein NS2B-NS3 protease; reporter gene; HeLa).
With `CCOC(=O)[C@](CC)(CCCSCCOCCOCCNC(=O)CCCCCN1C(=CC=CC=CC2=[N+](C)c3ccc4ccccc4c3C2(C)C)C(C)(C)c2c1ccc1ccccc21)NC(=O)c1ccc(C2CC2)c(Cc2ccc(F)cc2)n1` the EC50 was 0.14 µM (CNR2; cAMP, agonist).
`NC(=O)c1cccc(NC(=O)c2cc(-c3ccc(Br)cc3)n(-c3ccccc3)n2)c1` gave an EC50 of 13 µM (Genome polyprotein NS2B-NS3 protease; reporter gene; HeLa).
`C[n+]1c(/C=C/c2ccc(N(c3ccccc3)c3ccccc3)cc2)cc(/C=C2\Sc3ccccc3N2CCCN2CCCC2)c2ccccc21` has a Kd of 38.6 µM (VEGF DNA; isothermal titration calorimetry; pH 7.4, 25 °C, 2% DMSO).

For quick reference, copied from above:
`O=C(Nc1cccc(CNc2ncccn2)c1)c1cc(-c2ccccc2)n(-c2ccccc2)n1` has an EC50 of 2.2 µM (Genome polyprotein NS2B-NS3 protease; reporter gene; HeLa).
With `Cc1cccc2c1N(C(=O)n1ccnn1)CC2` the Kd was 520 µM and 320 µM and 495 µM (KAI2 (Arabidopsis thaliana, UniProt Q9SZU7, F157Y); ITC; F157Y mutant).
With `CCOC(=O)C(CC)(CCCSCCOCCOCCNC(=O)OC(C)(C)C)NC(=O)c1ccc(C2CC2)c(Cc2ccc(F)cc2)n1` (racemic) the Ki was 0.164 µM (CNR2; ligand displacement, radioligand; cell membranes).
